{"data": "Experimental data gathered from unrelated publications", "note": "Each numbered part is a random draw from the data of one study; scales do not carry over between parts. “And” joins repeats or separate records; there may be more than shown."}
{"data": "Set 1", "target": "Prothrombin, mature alpha-thrombin (F2, Homo sapiens, UniProt P00734)", "technique": "aptamer microarray, sandwich", "molecule type": "DNA with 2'F-ANA", "sample": "in vitro", "tested at": "200 nM", "setting": "whole 15-mer aptamer, many near background", "with": "Cy3 exosite-II aptamer, 400 nM", "direction": "higher = stronger binding", "strand": "GGTTGGTGTGGTTGG"}
{"Modification": "2'F-ANA at 6 9 13 14 15", "mean fluorescence intensity": "300 a.u."}
{"Modification": "2'F-ANA at 1 3 4 5 7 10 12 13 15", "mean fluorescence intensity": "64.4 a.u."}
{"Modification": "2'F-ANA at 2 4 6 9 10 15", "mean fluorescence intensity": "93.2 a.u."}
{"Modification": "2'F-ANA at 1 2 7 9 10 11 14 15", "mean fluorescence intensity": "46.6 a.u."}
{"Modification": "2'F-ANA at 5 8 10 11 12 15", "mean fluorescence intensity": "58.2 a.u."}
{"Modification": "2'F-ANA at 1 3 6 7 8 9 14", "mean fluorescence intensity": "99.7 a.u."}
{"Modification": "2'F-ANA at 5 6 8 9 12 14 15", "mean fluorescence intensity": "50 a.u."}
{"Modification": "2'F-ANA at 1 2 3 7 8 9 11 12 14", "mean fluorescence intensity": "97.7 a.u."}
{"data": "Set 2", "target": "Sal-like protein 4, full length isoform B (SALL4, Homo sapiens, UniProt Q9UJQ4-2, residues 1-616)", "technique": "universal PBM", "molecule type": "double-stranded DNA, one strand shown", "sample": "in vitro", "tested at": "not given", "setting": "8-mer, flanks averaged, mean of replicates", "direction": "higher = stronger binding", "Target sequence (chain)": "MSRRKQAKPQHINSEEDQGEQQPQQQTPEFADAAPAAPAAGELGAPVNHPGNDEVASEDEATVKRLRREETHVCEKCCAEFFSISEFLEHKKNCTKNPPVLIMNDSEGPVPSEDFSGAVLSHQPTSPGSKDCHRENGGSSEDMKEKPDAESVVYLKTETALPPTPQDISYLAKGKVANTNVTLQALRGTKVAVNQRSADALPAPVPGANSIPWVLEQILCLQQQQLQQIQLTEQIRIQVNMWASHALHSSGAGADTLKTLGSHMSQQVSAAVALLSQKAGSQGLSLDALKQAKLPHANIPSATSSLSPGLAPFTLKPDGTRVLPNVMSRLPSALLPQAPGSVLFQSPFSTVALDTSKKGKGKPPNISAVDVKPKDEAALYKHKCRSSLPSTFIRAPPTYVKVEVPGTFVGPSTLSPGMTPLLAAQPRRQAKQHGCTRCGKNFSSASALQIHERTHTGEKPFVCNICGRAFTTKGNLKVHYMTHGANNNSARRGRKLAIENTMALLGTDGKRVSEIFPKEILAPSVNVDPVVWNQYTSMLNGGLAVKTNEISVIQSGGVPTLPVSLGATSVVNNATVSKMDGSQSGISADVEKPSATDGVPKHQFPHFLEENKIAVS"}
{"Strand": "CATTGCCG", "E-score": -0.0899}
{"Strand": "TAAATTTA", "E-score": 0.366}
{"Strand": "ACGCTCAG", "E-score": -0.245}
{"Strand": "GGTGAACA", "E-score": -0.0315}
{"Strand": "GGGGTCGA", "E-score": -0.3}
{"Strand": "ATAGGCCG", "E-score": -0.198}
{"data": "Set 3", "target": "Interferon regulatory factor 7, full length, phosphomimetic (IRF7, Homo sapiens, UniProt Q92985, residues 1-503, S101K/S471D/S472D/S475D/S476D/S477D/S483D/S484D/S487D)", "technique": "protein-binding microarray", "molecule type": "double-stranded DNA, one strand shown", "sample": "in vitro", "tested at": "250 nM", "setting": "60-bp whole probe", "with": "salmon DNA 0.4 mg/ml", "reference": "random background probes", "direction": "higher = stronger binding", "all sequences stand within": "GCCTAGCAC … GTCTTGATTCGCTTGACGCTGCTG", "Residues (chain)": "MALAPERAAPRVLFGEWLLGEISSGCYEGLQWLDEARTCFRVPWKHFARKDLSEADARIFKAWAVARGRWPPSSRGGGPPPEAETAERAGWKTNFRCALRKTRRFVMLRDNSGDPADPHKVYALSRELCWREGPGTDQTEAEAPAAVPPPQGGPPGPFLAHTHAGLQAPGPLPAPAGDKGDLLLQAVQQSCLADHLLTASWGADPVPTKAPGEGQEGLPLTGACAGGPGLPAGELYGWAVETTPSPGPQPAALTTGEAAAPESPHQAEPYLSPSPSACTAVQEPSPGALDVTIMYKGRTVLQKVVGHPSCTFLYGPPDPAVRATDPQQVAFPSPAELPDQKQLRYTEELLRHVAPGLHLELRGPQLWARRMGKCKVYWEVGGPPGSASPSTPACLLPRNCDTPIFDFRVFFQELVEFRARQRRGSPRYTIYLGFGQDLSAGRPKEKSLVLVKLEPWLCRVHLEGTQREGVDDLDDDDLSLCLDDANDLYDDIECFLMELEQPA"}
{"Strand": "TTTGGTATCGGACTGGGTTAGTGCTAG", "log fluorescence": "0.189 z-score"}
{"Strand": "CCGCTTTTTTTTTTTTTTTTGTGCTAG", "log fluorescence": "0.994 z-score"}
{"Strand": "TTAGAACTGGGGTTTGGATTAGTGCTA", "log fluorescence": "-0.515 z-score"}
{"Strand": "TGAGATTTCAGTCTCGATTAGTGCTAG", "log fluorescence": "1.43 z-score"}
{"Strand": "CCGTGTTTCTCAACCATTTTGTGCTAG", "log fluorescence": "1.34 z-score"}
{"Strand": "TCATATTTAAGGCATCTGACTGTGCTA", "log fluorescence": "0.0572 z-score"}
{"Strand": "GACGGATTGGACTATCGGGACGTGCTA", "log fluorescence": "-0.411 z-score"}
{"Strand": "TTAGGTCTCGGTCTCGGTTTGTGCTAG", "log fluorescence": "5.41 z-score"}
{"Strand": "CACGAACTGAGACTGGAGACGTGCTAG", "log fluorescence": "-0.0552 z-score"}
{"Strand": "GTCGGTATCGGGTTTCGGGACGTGCTA", "log fluorescence": "3.84 z-score"}
{"Strand": "TCCACTTTCTTAATGCTTCTGTGCTAG", "log fluorescence": "1.01 z-score"}
{"data": "Mixed results"}
{"Substance": "PhoQ, residues 284 288 289 292 302 303 SSCCRF", "target": "PhoP, residues 12 14 15 18 19 LWHSL (Escherichia coli, UniProt P23836)", "test": "Sort-seq, measured: YFP reporter", "system": "E. coli", "conditions": "PhoQ-PhoP variant library, with: 10 µM Mg2+", "scale": "reference: high Mg2+ state, higher = stronger signaling", "measurement": "fold induction", "result": "11.5 and 18.7"}
{"note": "Repeated from above (set 3):"}
{"Strand": "TTTGGTATCGGACTGGGTTAGTGCTAG", "log fluorescence": "0.189 z-score"}
{"Strand": "CCGCTTTTTTTTTTTTTTTTGTGCTAG", "log fluorescence": "0.994 z-score"}
{"Strand": "TTAGAACTGGGGTTTGGATTAGTGCTA", "log fluorescence": "-0.515 z-score"}
